Assay results of several laboratories.
Protocols differ between the studies behind these lines.
GBA2: Beta-glucosidase (GBA2, Homo sapiens, UniProt Q9HCG7)
UniProt Q9HCG7, sequence (whole entry, looked up): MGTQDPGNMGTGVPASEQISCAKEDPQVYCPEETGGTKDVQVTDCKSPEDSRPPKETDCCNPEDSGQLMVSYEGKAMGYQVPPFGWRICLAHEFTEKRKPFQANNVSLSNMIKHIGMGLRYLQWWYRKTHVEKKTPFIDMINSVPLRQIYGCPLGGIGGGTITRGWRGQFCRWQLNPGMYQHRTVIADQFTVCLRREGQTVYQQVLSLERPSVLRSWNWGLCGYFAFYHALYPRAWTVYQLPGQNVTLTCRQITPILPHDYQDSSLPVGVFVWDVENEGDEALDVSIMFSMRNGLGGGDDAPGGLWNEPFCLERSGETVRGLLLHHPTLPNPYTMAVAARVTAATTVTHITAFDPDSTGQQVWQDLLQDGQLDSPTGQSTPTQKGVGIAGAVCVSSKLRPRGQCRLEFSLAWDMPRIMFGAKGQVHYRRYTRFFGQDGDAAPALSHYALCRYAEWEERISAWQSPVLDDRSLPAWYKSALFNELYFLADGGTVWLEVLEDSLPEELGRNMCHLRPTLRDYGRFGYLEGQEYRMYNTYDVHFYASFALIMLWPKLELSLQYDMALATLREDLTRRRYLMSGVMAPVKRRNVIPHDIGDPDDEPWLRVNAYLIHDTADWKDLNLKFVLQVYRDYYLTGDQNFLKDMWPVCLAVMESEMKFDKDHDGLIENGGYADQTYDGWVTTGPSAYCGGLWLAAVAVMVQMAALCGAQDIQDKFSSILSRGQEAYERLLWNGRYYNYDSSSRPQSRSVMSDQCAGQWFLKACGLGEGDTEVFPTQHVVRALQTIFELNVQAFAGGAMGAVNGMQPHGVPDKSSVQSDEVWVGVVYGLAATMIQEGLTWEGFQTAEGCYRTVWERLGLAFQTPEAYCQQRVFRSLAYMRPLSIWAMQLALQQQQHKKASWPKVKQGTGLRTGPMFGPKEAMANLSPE
Chymotrypsinogen A: Chymotrypsinogen A (Bos taurus, UniProt P00766)
PPARA ligand-binding domain: Peroxisome proliferator-activated receptor alpha, ligand-binding domain (PPARA, Homo sapiens, UniProt Q07869)
UniProt Q07869, sequence (whole entry, looked up): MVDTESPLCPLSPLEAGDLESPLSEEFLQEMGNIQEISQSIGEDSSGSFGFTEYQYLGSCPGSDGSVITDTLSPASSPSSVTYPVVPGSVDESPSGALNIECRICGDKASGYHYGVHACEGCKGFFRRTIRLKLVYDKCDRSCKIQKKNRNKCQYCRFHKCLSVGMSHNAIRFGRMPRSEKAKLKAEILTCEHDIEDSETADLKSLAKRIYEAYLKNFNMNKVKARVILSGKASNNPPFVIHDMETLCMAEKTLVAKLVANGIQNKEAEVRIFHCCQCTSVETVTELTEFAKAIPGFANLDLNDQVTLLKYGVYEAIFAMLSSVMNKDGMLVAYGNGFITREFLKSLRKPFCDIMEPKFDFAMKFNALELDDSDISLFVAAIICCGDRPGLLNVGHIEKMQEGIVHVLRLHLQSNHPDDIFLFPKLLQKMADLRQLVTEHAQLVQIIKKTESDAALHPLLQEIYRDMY
UniProt O60674, sequence (whole entry, looked up): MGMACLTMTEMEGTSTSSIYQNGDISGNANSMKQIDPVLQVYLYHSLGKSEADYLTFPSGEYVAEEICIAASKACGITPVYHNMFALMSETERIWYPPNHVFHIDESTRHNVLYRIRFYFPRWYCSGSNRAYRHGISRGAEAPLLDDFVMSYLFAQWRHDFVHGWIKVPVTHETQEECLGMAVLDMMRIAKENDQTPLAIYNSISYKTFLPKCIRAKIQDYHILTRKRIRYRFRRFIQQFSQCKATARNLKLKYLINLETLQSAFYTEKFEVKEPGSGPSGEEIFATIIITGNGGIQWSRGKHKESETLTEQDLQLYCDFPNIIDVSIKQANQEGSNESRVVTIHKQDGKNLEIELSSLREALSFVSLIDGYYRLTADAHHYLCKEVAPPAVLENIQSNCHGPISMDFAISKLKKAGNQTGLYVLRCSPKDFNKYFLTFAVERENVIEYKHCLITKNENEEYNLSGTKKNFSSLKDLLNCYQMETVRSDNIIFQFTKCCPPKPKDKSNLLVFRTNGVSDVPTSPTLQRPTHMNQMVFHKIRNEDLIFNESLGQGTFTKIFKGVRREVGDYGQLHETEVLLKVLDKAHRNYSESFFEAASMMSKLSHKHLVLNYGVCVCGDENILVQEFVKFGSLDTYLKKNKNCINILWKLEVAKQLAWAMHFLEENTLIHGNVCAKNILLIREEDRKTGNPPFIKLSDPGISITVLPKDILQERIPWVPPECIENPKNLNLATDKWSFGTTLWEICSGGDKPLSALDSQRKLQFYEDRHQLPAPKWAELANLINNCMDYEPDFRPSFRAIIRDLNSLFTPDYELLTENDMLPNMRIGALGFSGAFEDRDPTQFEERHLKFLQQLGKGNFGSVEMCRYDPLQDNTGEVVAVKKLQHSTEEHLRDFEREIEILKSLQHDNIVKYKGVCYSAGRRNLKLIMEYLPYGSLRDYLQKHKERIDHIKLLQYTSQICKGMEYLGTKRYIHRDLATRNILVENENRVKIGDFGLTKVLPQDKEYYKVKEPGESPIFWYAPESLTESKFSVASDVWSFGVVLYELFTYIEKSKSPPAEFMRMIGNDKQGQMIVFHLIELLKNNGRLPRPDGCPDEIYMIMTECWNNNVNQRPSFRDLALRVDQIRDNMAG
UniProt P10997, sequence (whole entry, looked up): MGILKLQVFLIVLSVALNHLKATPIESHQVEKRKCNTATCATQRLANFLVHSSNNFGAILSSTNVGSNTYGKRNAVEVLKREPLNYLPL
UniProt Q8TBX8, sequence (whole entry, looked up): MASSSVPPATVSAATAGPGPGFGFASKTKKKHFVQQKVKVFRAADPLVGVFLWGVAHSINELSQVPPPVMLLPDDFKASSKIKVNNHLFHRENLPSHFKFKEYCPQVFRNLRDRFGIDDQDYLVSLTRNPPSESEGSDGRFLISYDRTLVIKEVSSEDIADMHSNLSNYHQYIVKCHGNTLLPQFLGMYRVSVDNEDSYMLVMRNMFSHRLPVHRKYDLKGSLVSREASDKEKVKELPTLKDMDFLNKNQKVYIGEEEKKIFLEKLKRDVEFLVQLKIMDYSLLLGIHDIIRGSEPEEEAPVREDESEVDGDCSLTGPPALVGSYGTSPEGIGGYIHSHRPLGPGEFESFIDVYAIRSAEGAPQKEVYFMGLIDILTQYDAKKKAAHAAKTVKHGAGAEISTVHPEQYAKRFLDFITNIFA
UniProt P15291, sequence (whole entry, looked up): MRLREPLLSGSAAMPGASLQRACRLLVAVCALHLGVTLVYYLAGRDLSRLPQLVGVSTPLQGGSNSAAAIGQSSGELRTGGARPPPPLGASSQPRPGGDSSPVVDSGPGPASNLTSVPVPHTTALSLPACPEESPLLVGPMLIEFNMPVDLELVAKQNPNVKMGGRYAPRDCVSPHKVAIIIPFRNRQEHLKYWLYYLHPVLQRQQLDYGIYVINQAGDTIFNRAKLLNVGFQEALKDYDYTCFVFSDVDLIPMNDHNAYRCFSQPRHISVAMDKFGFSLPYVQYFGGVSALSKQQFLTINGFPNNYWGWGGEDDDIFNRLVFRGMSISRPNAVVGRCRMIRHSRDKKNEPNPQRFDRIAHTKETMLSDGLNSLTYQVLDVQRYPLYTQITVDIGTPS
UniProt Q92769, sequence (whole entry, looked up): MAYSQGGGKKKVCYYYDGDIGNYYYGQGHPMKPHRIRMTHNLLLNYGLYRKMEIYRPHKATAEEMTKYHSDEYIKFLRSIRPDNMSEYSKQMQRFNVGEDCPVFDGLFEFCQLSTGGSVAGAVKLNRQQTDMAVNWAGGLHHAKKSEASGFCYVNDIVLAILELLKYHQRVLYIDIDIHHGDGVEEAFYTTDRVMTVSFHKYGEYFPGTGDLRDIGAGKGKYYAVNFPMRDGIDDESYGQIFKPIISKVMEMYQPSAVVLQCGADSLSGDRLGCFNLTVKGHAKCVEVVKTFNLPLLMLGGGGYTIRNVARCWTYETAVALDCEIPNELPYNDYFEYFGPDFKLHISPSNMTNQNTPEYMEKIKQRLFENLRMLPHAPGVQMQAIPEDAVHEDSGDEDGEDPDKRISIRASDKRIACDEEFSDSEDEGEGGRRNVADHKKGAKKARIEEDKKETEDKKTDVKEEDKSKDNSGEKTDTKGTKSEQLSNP
UniProt P09917, sequence (whole entry, looked up): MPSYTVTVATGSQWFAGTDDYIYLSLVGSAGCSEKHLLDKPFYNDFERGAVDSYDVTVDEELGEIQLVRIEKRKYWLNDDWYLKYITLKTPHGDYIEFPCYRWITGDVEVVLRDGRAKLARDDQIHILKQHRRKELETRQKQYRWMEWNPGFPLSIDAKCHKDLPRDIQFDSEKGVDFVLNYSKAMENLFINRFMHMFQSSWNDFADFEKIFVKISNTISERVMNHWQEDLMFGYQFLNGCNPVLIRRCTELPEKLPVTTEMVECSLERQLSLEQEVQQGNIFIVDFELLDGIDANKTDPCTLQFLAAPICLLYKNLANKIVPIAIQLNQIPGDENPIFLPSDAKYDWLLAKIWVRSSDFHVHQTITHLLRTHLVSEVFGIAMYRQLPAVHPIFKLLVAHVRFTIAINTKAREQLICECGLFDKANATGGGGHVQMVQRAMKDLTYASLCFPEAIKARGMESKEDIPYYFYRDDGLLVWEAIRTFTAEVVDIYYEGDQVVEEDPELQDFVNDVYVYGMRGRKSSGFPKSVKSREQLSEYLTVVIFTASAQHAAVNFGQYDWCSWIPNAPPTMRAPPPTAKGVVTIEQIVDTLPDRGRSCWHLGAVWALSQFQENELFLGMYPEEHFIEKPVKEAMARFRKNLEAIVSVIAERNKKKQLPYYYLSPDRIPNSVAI
UniProt Q8IXJ6, sequence (whole entry, looked up): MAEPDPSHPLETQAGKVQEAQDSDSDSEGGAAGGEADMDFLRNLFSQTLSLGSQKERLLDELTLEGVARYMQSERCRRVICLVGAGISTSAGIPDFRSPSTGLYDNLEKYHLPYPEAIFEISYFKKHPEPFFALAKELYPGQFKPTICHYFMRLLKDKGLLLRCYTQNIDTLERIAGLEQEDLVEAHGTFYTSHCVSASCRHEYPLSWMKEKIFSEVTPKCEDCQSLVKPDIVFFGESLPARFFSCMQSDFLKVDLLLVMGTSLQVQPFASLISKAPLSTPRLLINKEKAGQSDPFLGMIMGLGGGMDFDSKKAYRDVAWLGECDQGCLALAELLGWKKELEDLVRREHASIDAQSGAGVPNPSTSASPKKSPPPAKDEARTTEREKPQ

CCCCCCOCCCCCN1C[C@H](O)[C@@H](O)[C@H](O)[C@H]1CO — IC50 (GBA2; inhibitor, 4MU-β-D-glucopyranoside; HEK293T homogenates overexpressing GBA2): 0.008 µM
CC(C)(C)c1ccc(NC(=O)C(C(F)(F)F)C(F)(F)F)cc1 — IC50 (Chymotrypsinogen A; enzyme activity, inhibitor, fluorescence): > 100 µM
Cc1c(Cc2cccc(OC(C)(C)C(=O)O)c2)c2ccc(C(=O)N[C@@H](C)c3cccc(C(C)(C)C)c3)cc2n1C — IC50 (PPARA ligand-binding domain; reporter gene, luciferase reporter; HEK293T, Gal4-PPARα LBD): 485 µM
Cc1c(COc2cc(OCc3cccc(C#N)c3)c(CN3CCCC[C@H]3C(=O)O)cc2Cl)cccc1-c1cccc(OCCCCCCC(=O)NO)c1 — IC50 (Histone deacetylase 2 (HDAC2, Homo sapiens, UniProt Q92769); enzyme activity, inhibitor): 0.0305 µM
Cc1nn(-c2cccc(N)c2)c(=O)c2cnc(Nc3ccc(N4CCNCC4)cc3)nc12 — IC50 (Tyrosine-protein kinase JAK2, JH1-JH2 domains (JAK2, Homo sapiens, UniProt O60674); kinase activity, inhibitor, SelectScreen kinase profiling): > 10 µM
Cc1c(CC(=O)NCCCO)c(=O)oc2cc(O)cc(O)c12 — IC50 (Beta-1,4-galactosyltransferase 1 (B4GALT1, Homo sapiens, UniProt P15291); enzyme activity, inhibitor): 8 µM
Cc1c(Cc2ccc(OC(C)C(=O)O)cc2)c2ccc(C(=O)NC(C)c3cccc(C(F)(F)F)c3)cc2n1C (mixture of isomers) — IC50 (PPARA ligand-binding domain; reporter gene, luciferase reporter; HEK293T, Gal4-PPARα LBD): 4.6 µM
O=C(NCCOc1ccccc1NC(=O)C(C(F)(F)F)C(F)(F)F)c1ccccc1 — IC50 (Chymotrypsinogen A; enzyme activity, inhibitor, fluorescence): 69 µM
OC[C@@H]1[C@@H](O)[C@H](O)[C@@H](O)CN1CCCCCOCc1ccc(-c2ccc3c(c2)OCCO3)cc1 — IC50 (GBA2; inhibitor, 4MU-β-D-glucopyranoside; HEK293T homogenates overexpressing GBA2): 0.03 µM
O=c1cc(-c2ccc(O)cc2)oc2cc(O)ccc12 — IC50 (Polyunsaturated fatty acid 5-lipoxygenase (ALOX5, Homo sapiens, UniProt P09917); enzyme activity, inhibitor): 5.01 µM
CCCCCCCCCCCCCC(=S)NCCCC[C@H](NS(C)(=O)=O)C(=O)N[C@H](C)C(=O)N[C@@H](CCCNC(=N)N)C(N)=O — IC50 (NAD-dependent protein deacetylase sirtuin-2 (SIRT2, Homo sapiens, UniProt Q8IXJ6); enzyme activity, inhibitor, HPLC): 0.022 µM
OC[C@@H]1[C@@H](O)[C@H](O)[C@@H](O)CN1CCCCCOCc1ccc(-c2cccc(F)c2)cc1 — IC50 (GBA2; inhibitor, 4MU-β-D-glucopyranoside; HEK293T homogenates overexpressing GBA2): 0.001 µM
NCCOc1ccccc1NC(=O)C(C(F)(F)F)C(F)(F)F — IC50 (Chymotrypsinogen A; enzyme activity, inhibitor, fluorescence): 273 µM
Nc1ncc2c(n1)-c1c([nH]c3ccc(C4=CCOCC4)cc13)CCC2 — IC50 (Phosphatidylinositol 5-phosphate 4-kinase type-2 gamma (PIP4K2C, Homo sapiens, UniProt Q8TBX8); target engagement in cells, BRET): 0.067 µM
COc1c(Cl)cccc1Nc1c(-c2ccncc2C#C[C@@]2(C)CCCN2C(=O)/C=C/CN(C)C)[nH]c2c1C(=O)NCC2 — IC50 (Serine/threonine-protein kinase NLK (NLK, Homo sapiens, UniProt Q9UBE8)): 0.21 µM
COc1ccc2c(c1)N(C1=C(c3ccc(O)cc3)C(=O)NC1=O)CC2 — IC50 (Sensor histidine kinase AirS (Staphylococcus aureus, UniProt Q2FX96); autophosphorylation, inhibitor, BODIPY-FL-ATPγS in-gel fluorescence; lower bound of confidence interval): > 1250 µM
CC(C)=CCC/C(C)=C/CC/C(C)=C/COCCCCCN1C[C@H](O)[C@@H](O)[C@H](O)[C@@H]1CO — IC50 (GBA2; inhibitor, 4MU-β-D-glucopyranoside; HEK293T homogenates overexpressing GBA2): 0.1 µM
CN(C)c1ccc(/N=N/c2ccc(C(=O)OCCOCCN)cc2)cc1 — IC50 (Islet amyloid polypeptide (IAPP, Homo sapiens, UniProt P10997); ThT displacement, ThT fluorescence; pH 7.4, preformed target-ThT complex, together with: 5 µM ThT): 0.37 µM

Some of these lines once more:
CC(C)(C)c1ccc(NC(=O)C(C(F)(F)F)C(F)(F)F)cc1 — IC50 (Chymotrypsinogen A; enzyme activity, inhibitor, fluorescence): > 100 µM
